Measured values pooled from the literature.
Numbered parts are unrelated; each lists some results of a single study.

Sample 1
Target: RING finger protein unkempt homolog, zinc fingers 1-6, GST-SBP tag (UNK, Homo sapiens, UniProt Q9C0B0, residues 30-357)
Method: RNA Bind-n-Seq
Form: RNA
Medium: in vitro
Concentration: not given
Setting: RNA with constant flanks, human-mouse chimeric sites, ends assumed
Baseline: input RNA pool
Reading: higher = stronger binding
Constant ends, left off below: GGGAGUUCUACAGUCCGACGAUC … CAACAGAGGAUUGAGCAUCA
Residues (chain): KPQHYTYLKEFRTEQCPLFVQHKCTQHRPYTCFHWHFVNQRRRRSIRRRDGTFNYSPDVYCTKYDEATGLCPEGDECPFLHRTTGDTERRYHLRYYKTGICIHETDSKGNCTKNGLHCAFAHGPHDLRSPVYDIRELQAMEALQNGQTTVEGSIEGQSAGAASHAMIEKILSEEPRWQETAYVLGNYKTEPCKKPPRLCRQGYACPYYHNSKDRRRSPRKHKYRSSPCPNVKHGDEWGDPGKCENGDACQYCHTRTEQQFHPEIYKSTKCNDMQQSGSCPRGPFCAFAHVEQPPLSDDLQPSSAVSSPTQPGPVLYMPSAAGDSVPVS
Sequence | bound/input enrichment
UACAUCACCAAUGUCCUACAAAAUCCUGACUUGGCUCUGAGAAUGGCUGUGCGGAACAACUUAGCUGGUGCUGAAGAACUCUUUGCCCGGAAAUUUAAUGCUCUCUUUGCCCAGGGAAAC | 0.244 ratio
CUGGCCUGGCCCUCCCCAGGGGCCUCCUUUCGUAUAGUAACUGUCAGUGCAUCAGAUACUUUCAGCUGCAACUCCCUGCAGGGUGGGGCACCCAUUUCAGGCAGAAGGUUUUGGUACCCU | 0.445 ratio
CUGUGUGUGCUGAAUAAUGAUUUGUGAAAGAAGUUUUCCAAGUUGUAAACCCAUGCUGUUAUUAUAGUUGCUGCAAAAUGUUCUUCCUGAUAUUGAUUUUAUUUGUUAACUGAAGGUCUC | 0.684 ratio
AGAAUCUUGGGACUGUUUUGCUUGAUUGGUCAUUGAUAGCUUAACAAACAUGGAGAUAAGAUUAGAAAUCUUGACAUCAACAGGUAUUAAGCAGAAAAAACCAUGGCCCAGAGUAUCCUG | 0.107 ratio
GCGAACAGGACUACAGAAAUGCUGGUAAUUUCAGUCACUUGCUGAUGACUUCUGAUGUCCCAGCAAAUGUUGGCAUUCACUGCAAUAGAGAAGAUACUUCUGAGGACCCACGUCUAAGGU | 0.172 ratio
AGAUUCCCCCUCCUGAGACCUCCUCCGAAGUUGGAGUCUCUUACAGAUGCCUCAUCCCCUGUUAGCGUUUUAGUUUGGACCACCCAGCCUUGGACGAUUCCCGCCAAUGAAGCUGUUUGC | 1.5 ratio
GAAUCCUACUCAGGCGGUCCCACAACAACCAAGCUCACAGCAGCAGCUCCAUAGUCACAGUAGGGUAGUUUUGGGGCUCUGUGGCCAGGGUUUUAUUCACAUGCAGGUUUGGAAAAUGUA | 0.404 ratio
UCAUUUUGCUCGGGUUAUUCUUUCCUUUAGGAAAAGCCUAAAGAUUAGGUUGUAAGAAAAACAGAAGCCAUGUUUCGAAGACCUGUGUUACAGGUACUUCGUCAGUUUGUAAGACAUGAG | 0.701 ratio
GUACUGCAGCAGCAGGGAAAACUGCAGGAAGCUCUGAUGCACUAUAAGGAGGCUAUUCGAAUCAGUCCUACAUUUGCUGAUGCCUACUCUAAUAUGGGAAACACUCUAAAGGAGAUGCAG | 0.251 ratio
ACUCAGAGAUCCACCUCCCAAAGUGCUGGGAGUAAAGGUGUGGCCACCACACCUAACUUGAUGGAUAUAUAUUUUUUUUAAUAUGAAUGAACUCUUGCGUCCAGGGAAGAAAGAUUUGUU | 0.799 ratio
GCUCUUGGCAAUGUAAUCAGCGCCUUGGGGGACAAGAGCAAGAGGGCCACCCAUGUCCCUUACAGAGACUCUAAGCUGACAAGACUCUUGCAGGAUUCCCUUGGGGGUAACAGCCAAACC | 0.0908 ratio

Sample 2
Target: RNA binding protein fox-1 homolog 2, RRM domain, GST-SBP tag (RBFOX2, Homo sapiens, UniProt O43251-10, residues 100-194)
Method: RNA Bind-n-Seq
Form: RNA
Medium: in vitro
Concentration: 365 nM
Setting: natural RNA segment, single round, ends assumed
Baseline: no-protein control
Reading: higher = stronger binding
Constant ends, left off below: GGGAGUUCUACAGUCCGACGAUC … UGGAAUUCUCGGGUGCCAA
Construct (chain): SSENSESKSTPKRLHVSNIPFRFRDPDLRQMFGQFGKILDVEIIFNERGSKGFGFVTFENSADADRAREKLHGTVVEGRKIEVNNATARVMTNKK
Sequence | RBNS enrichment (R)
GGCUACCAGAACAUGGGGCAGGUGGCUGGUGUUGGUGUCCCAGCCUAAGAGCCACCUGCUGCAGUUACCAUGGCAUGCUGAGUUGAUGCACCAGGUGGCAGCAGCCAUCC | 0.313
ACUCUAGGCAUGAGAGCACCGGGGACCAAGCCAUGUGGCUUUUUUUUUUUUUUUUUAAACUUUGCCUUCCUGGACAACUUAAGGUGUGUCUCUUAAUUCUCUCUUACAGU | 0.623
GUAUCCUGGAUGGUCUCAUAACGUUGGCCAUAAUAGGUACAUAAUCAGAAGAUCACUUAGACAACAUCUGAUAUUAAUGUGAUUCUUGCAUUCAAGACACUUGCAAAUGU | 0.251
AAACAUAAAAAGAUCAGGAGAGCAUGACACGGUCUCUUUGUGGCCAGUCAGAAAAGCAAACUAACAGAAACAUGAAUUAGAAUUUCAAGCUCAUCUGAGUUUGACCAACA | 0.692
CCACUUAAAUAAAGUCUUUAAGUAGCUGAAGGAUUAACAGUCUGGUGGGAGGCAAGCCAUUGAACUGAACCACGAGGAAAGUAUAUUUUCUUCUUUUCUUUUCCUGCCAA | 0.418
GUGCACACGCCUUCCUUCCCUCCCAGGCACUCCACGGAGUCAUCUUGGGUCUCCUGGGAUUCUAGGAGUGACAGACCAGGCUGUGGCCUCUGCACCCCACCCCUCACCCU | 0.334
AAAGUAAUUUAAAUUAGUGGGAAAGUAGCAUGCUUGCAUCACAUAGAGUGAGAUUGGUAUUCAUUUACCUAUGUUGCGCCAGUUUGUGUUGCAGUUUACCAAUUCAAUAU | 0.382
GGCUGACCUUCCUGAUCAUACACACACACAGCCCAGCAAAAGCCUCUCCUGAACCAAACAAACCUGUUGGUUGGGAGACUGCCCAGACAUGAUUGAUGACGGGUUCCCGC | 0.955
UCUUGUUUUAUAAAUUUCACUGUUGUUUCUAUAUUAGCAAUUAAUAUUAAAAUAUAUUUUAUAUUUUAUUCAUUAAUAUAACAACAAUCCUAUCAGGAAAAGUUUCUAGA | 1.95
AGCUUUCGUCCCCUUGCACUUAGACUCGAAGUUAGUAAAUCCUUAAAGGCUUUUUAAUAGCAGACUUCCAAAAGAUUGCAUUUAGGAUUUCUAGCAUGCUUUUAAUUUCA | 7.08
UGUAUUUCAGUGCCUCCAGCUUUGCACUUGAGAGACAAGUGUUUACUGCUGUUUGACUUUCCCCUUGACAUUUCUCAGAAAAAUGCAGGGCUGCAGCUGAGAGCAGACUG | 0.504
CUCUACUGCUGAUUCUCACCUUGCUGGAAUUAUGCGUAACCAUCUCUACCAUAGCCAUGUGGUGCAAUGCAAACUGCUGUAAUUCAAGAGAGGAAAUUUCCUCACCUCCC | 0.329

Sample 3
Target: Ras GTPase-activating protein-binding protein 1, RRM domain (G3BP1, Homo sapiens, UniProt Q13283)
Sequence of UniProt Q13283 (whole entry, looked up): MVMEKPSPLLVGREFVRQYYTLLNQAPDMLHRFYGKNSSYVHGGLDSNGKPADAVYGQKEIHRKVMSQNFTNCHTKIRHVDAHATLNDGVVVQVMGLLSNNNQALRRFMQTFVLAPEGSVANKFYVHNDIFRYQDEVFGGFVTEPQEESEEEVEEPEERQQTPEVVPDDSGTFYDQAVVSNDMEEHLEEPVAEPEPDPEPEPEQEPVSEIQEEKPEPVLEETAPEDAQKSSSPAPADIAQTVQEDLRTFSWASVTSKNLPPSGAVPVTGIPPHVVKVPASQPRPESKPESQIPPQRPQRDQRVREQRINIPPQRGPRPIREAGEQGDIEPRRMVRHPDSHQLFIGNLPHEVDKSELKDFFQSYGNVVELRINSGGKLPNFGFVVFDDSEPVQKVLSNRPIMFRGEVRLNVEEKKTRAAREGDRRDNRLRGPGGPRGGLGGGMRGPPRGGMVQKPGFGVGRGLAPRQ
Method: RNA Bind-n-Seq
Form: RNA
Medium: in vitro
Concentration: 1 µM
Setting: whole 134-nt RNA, ends assumed
Together with: 150 mM KCl
Baseline: input library
Reading: higher = stronger binding
Constant ends, left off below: GGGAGUUCUACAGUCCGACGAUC … UGGAAUUCUCGGGUGUCAAGG
Sequence | log2 enrichment
UGGGAGGUGGAUUUUGUUUAUUUUUUUAGCUCAUUUCCAGGGGUGGGAAUUUUUUUUUAAUAUGUGUCAUGAAGAAAGUUGUUUUUGAAA | 0.629
UGGUCAUGGGAUGGAGAACCAGUUCUUCCCUUAUAUCUUCACCAUAUGACUAUUGACCCUGUCUUAGGCUGCUCCCAGGCCGUUCCAUUG | 0.0973
UGGCCCUGGUGGCAUGCGGGGAGGAAGAGGUGGCCUCAUGGAUCGUGGUGGUCCCGGUGGAAUGUUCUGAGGUGGCCGUGGUGGAGACAG | 2.21
AGUCCUGUGCUACACAUCGUAUGUACCGAAUCGGGAAAGGGAAAAAAAGGGAAAGGGAAAGUAUUAUGUUACGCCGUUCGGAUCUGCACU | 0.375
UGGCCCUGGUGGCAUGCGGGGAGGAAGAGGUGGCCUCAUGGAUCGUGGUGGUCCCGGUGGACUGUUCAGAGGUGGCCGUGGUGGAGACAG | 0.811
UCCUGUGCUACACAUCGUAUGUACCGAAUCGGGGUGGGGAAAAAGGGGAAAAAAAGGGGAAAGUAUUAUGUUACGCCGUUCGGAUCUGCA | 0.597
UUUCUUCUGCUGCUGCUAGUCAUGAGAUCAAGGUGGGUCUGAGAAUGGCCAUUCAGAGGCCCUGGAUAGUAACCAGGUAAUGGAUGACAC | -0.231
CUCAAGUCCUGUGCUACACAUCGUAUGUACCGAAUCGGGUGGGAAAGGGAGGGAAAGUAUUAUGUUACGCCGUUCGGAUCUGCACUUCCA | 0.625
UCCUGUGCUACACAUCGUAUGUACCGAAUCGGGCCCCCCGGGGCCCCCCGGCCCCCCGGGAAAGUAUUAUGUUACGCCGUUCGGAUCUGC | -0.429
UCCUGUGCUACACAUCGUAUGUACCGAAUCAAACCCCCCCAAACCCAAACCCCCCCAAAAAAGUAUUAUGUUACGCCGUUCGGAUCUGCA | -0.252
CUCAAGUCCUGUGCUACACAUCGUAUGUACCGAAUCGGGGCGGGCGGGGCGGGAAAGUAUUAUGUUACGCCGUUCGGAUCUGCACUUCCA | 0.19
AGUCCUGUGCUACACAUCGUAUGUACCGAAUCGGUUUGGUUUUUUUGGAAAAAAAGGAAAGUAUUAUGUUACGCCGUUCGGAUCUGCACU | -0.236
CAAGUCCUGUGCUACACAUCGUAUGUACCGAAUCGGGGAGGGGUGGGGAAAGGGGAAAGUAUUAUGUUACGCCGUUCGGAUCUGCACUUC | 0.988
CAAGUCCUGUGCUACACAUCGUAUGUACCGAAUCGGGGUUUGGGGUUUGGUUUGGGAAAGUAUUAUGUUACGCCGUUCGGAUCUGCACUU | -0.472

Sample 4
Target: Interferon regulatory factor 7, full length, phosphomimetic (IRF7, Homo sapiens, UniProt Q92985, residues 1-503, S101K/S471D/S472D/S475D/S476D/S477D/S483D/S484D/S487D)
Method: protein-binding microarray
Form: double-stranded DNA, one strand shown
Medium: in vitro
Concentration: 250 nM
Setting: 60-bp whole probe
Together with: salmon DNA 0.4 mg/ml
Baseline: random background probes
Reading: higher = stronger binding
Constant ends, left off below: GCCTAGCAC … GTCTTGATTCGCTTGACGCTGCTG
Residues (chain): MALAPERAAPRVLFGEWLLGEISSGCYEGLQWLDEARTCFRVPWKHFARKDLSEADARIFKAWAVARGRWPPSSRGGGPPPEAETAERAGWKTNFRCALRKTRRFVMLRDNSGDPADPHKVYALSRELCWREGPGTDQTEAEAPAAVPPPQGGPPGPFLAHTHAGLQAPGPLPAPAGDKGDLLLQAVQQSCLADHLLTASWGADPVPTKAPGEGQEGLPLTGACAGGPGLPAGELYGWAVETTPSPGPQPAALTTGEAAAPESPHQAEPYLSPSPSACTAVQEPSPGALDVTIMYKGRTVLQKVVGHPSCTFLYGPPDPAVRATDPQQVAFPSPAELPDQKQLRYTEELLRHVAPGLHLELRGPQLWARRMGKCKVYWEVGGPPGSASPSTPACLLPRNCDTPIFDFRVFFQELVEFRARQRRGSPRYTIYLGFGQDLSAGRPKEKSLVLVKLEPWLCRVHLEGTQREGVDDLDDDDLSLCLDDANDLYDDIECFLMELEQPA
Sequence | log fluorescence [z-score]
AACTTTTTTTTTTCCCTGAAGTGCTAG | 0.733
TCATAAGCAAAAATGATACTGTGCTAG | 0.255
TTAGGTATCGATATCGGTTAGTGCTAG | 2.72
TTAGGTATCGGTCTGGGTTAGTGCTAG | 0.588
TTAGATTTCGGGTTTCGCTTAGTGCTA | 5.63
CCAACTCTGTTTTCGCTTTCTGTGCTA | 4.22
GACGGTTTCGGACTGGTGACGTGCTAG | 4.22
GACGGACTGGGTATCCGGACGTGCTAG | -0.286
ATGCTTCTGGTCTTCTGGGCGTGCTAG | -0.338
CATTTTCTCTTATTCTAACAGTGCTAG | 3.47
TTAGTTCTCGGACTGGGTTAGTGCTAG | 0.656
TTAGGTTTCGACTTCCGGTTAGTGCTA | 11.3
GAATGTTTTTCATTGTTTTTGTGCTAG | 0.836
GACCGTCTCGGACTGGGGACGTGCTAG | 0.239
TCAGATTTACAAACTGTGACTGTGCTA | 0.099
GACGGTCTCCTTTTACTGACGTGCTAG | 1.8
TTAGGTATCCTTCTCCTTTTGTGCTAG | 0.831
GACGGTTTCTTTATCCTGACGTGCTAG | 3.01
GACGGTCTCGGTCTAGGGACGTGCTAG | 0.924
GACGGTTTCGGGTTTCGGGAAGTGCTA | 11.8

A few entries again (sample 3):
Sequence | log2 enrichment
CAAGUCCUGUGCUACACAUCGUAUGUACCGAAUCGGGGUUUGGGGUUUGGUUUGGGAAAGUAUUAUGUUACGCCGUUCGGAUCUGCACUU | -0.472
UUUCUUCUGCUGCUGCUAGUCAUGAGAUCAAGGUGGGUCUGAGAAUGGCCAUUCAGAGGCCCUGGAUAGUAACCAGGUAAUGGAUGACAC | -0.231
AGUCCUGUGCUACACAUCGUAUGUACCGAAUCGGGAAAGGGAAAAAAAGGGAAAGGGAAAGUAUUAUGUUACGCCGUUCGGAUCUGCACU | 0.375
